Values quoted from earlier work that unrelated publications cite.
Compare with care: the assays were run in different laboratories. ± gives the spread as reported. ≈ marks a conversion by molar mass, not a printed value.

Nc1cc(C(F)(F)F)c(-c2nc(N3CCOCC3)nc(N3CCOCC3)n2)cn1
GI50 (LoVo): 332 nM

CC(=O)O[C@@]12CO[C@@H]1C[C@H](O)[C@@]1(C)C(=O)[C@H](O)C3=C(C)[C@@H](OC(=O)[C@H](O)[C@@H](NC(=O)OC(C)(C)C)c4ccccc4)C[C@@](O)([C@@H](OC(=O)c4ccccc4)[C@H]21)C3(C)C
EC50 (PC-3; cell growth; 72 h): 15 ± 4 nM

COc1cc2ncnc(Nc3ccc(F)c(Cl)c3)c2cc1OCCCN1CCOCC1
GI50 (NCI60 panel; mean over panel): 3200 nM

O=C(c1cc(-c2ccco2)[nH]n1)N1CCN(S(=O)(=O)c2ccc(Cl)cc2)CC1
IC50 (Plasmodium falciparum; whole cell extended time; 3D7; 72 h): 360 nM

Cc1c(C#N)cccc1[C@@H](C)Nc1nnc(C)c2cnc(N3CCOCC3)cc12
IC50 (HCC1438; cell viability, 3D CellTiter-Glo; 14 days): 176 ± 141 nM

COc1cc(C(=O)NS(=O)(=O)c2ccccc2C)ccc1Cc1cn(C)c2ccc(NC(=O)OC3CCCC3)cc12
maximal inhibition (HEK293; VRAC current, inhibitor; hypotonic swelling-activated): ~100%

CC(F)(F)c1cc(F)ccc1-c1sc2cc(O)ccc2c1Oc1ccc(/C=C/C(=O)O)cc1
IC50 (MCF7; ER-mediated transcription, inhibitor): 6 nM

COc1ccccc1Oc1cccc(CN2CCC(NC(=O)C(CCN3CCCC3)c3ccccc3)CC2)c1 (centres unmarked)
EC50 (human CCR8 F46A mutant (TM1); IP accumulation, agonist): 43 nM

NC1(c2ccc(-c3nc4ccn5c(=O)[nH]nc5c4cc3-c3ccccc3)cc2)CCC1
IC50 (A 172): 46200 nM

O=c1[nH]cc(F)c(=O)[nH]1
GI50 (NCI60 panel; mean over panel): 18000 nM

COc1ccccc1Oc1cccc(CN2CCC(NC(=O)C3CC(=O)Nc4ccccc43)CC2)c1 (centres unmarked)
EC50 (human CCR8 F112A mutant (TM3); IP accumulation, agonist): 37 nM

O=C(c1ccc(Cl)cc1)N(Cc1ccccc1)C1CCCCC1
cytokine release (BV-2; measured: IL-1β, IL-6, TNF-α; concentration not given, with: LPS): decreased

CC(=O)c1c(C)c2cnc(Nc3ccc(N4CCNCC4)cn3)nc2n(C2CCCC2)c1=O
intracellular calcium mobilization (human neutrophils; concentration not given, with: fMLF): no effect

COc1cc2c(Oc3ccc(NC(=O)C4(C(=O)Nc5ccc(F)cc5)CC4)cc3F)ccnc2cc1OCCCN1CCOCC1
IC50 (T98G): 2420 nM

CC(C)(c1ccc(O)cc1)c1ccc(O)cc1
EC50 (MCF7; cell proliferation; 10% FBS): 200 nM

COc1ccc(Oc2ccc(-c3c(C)[nH]c(C)c(Cl)c3=O)cc2)cc1
IC50 (Plasmodium falciparum; whole cell extended time; 3D7; 72 h): 140 nM

O=C1CCC(N2C(=O)c3ccccc3C2=O)C(=O)N1 (centres unmarked)
inhibition (Hs Sultan; cell proliferation; 100 µM): 20%

[Cl-].c1csc([I+]c2cccs2)c1
inhibitory concentration (macrophages; mitochondrial respiration): 21 µM

C[C@H]1COCCN1c1nc(-c2cnc(N)cc2C(F)F)nc(N2CCOCC2)n1
GI50 (FaDu): 463 nM

Cc1nc(NC(=O)N2CCC[C@H]2C(N)=O)sc1-c1ccnc(C(C)(C)C(F)(F)F)c1
IC50 (T98G): 45500 nM

CNC(C)C1CCC(N)C(OC2C(N)CC(N)C(OC3OCC(C)(O)C(NC)C3O)C2O)O1 (centres unmarked)
MIC (Pseudomonas aeruginosa; clinical isolate RKI-No_627/13): 2 µg/mL (≈ 4.19 µM)

COc1ccc(-c2coc3cc(O)cc(O)c3c2=O)cc1
TEER increase (Caco-2 monolayers; concentration not given): ≤ 36%

OCc1cn(Cc2cccc(Cl)c2)c2ccccc12
GI50 (most sensitive cancer lines; eight of fifty-eight lines): ≤ 10 nM

CC(=O)c1c(C)c2cnc(Nc3ccc(N4CCNCC4)cn3)nc2n(C2CCCC2)c1=O
IC50 (A 172): 18800 nM

CC1(C)S[C@@H]2[C@H](NC(=O)[C@H](N)c3ccccc3)C(=O)N2[C@H]1C(=O)O
MIC (Pseudomonas aeruginosa; clinical isolate RKI-No_46/14): > 16 µg/mL

CC(C)(C)c1ccc(O)c(CN(Cc2cc(C(C)(C)C)ccc2O)C2CCC(NC(N)=O)CC2)c1 (centres unmarked)
PAR-1 expression (HMC3; concentration not given, with: thrombin): decreased

Excerpt of the above:
O=C(c1cc(-c2ccco2)[nH]n1)N1CCN(S(=O)(=O)c2ccc(Cl)cc2)CC1
IC50 (Plasmodium falciparum; whole cell extended time; 3D7; 72 h): 360 nM

Cc1c(C#N)cccc1[C@@H](C)Nc1nnc(C)c2cnc(N3CCOCC3)cc12
IC50 (HCC1438; cell viability, 3D CellTiter-Glo; 14 days): 176 ± 141 nM

COc1cc(C(=O)NS(=O)(=O)c2ccccc2C)ccc1Cc1cn(C)c2ccc(NC(=O)OC3CCCC3)cc12
maximal inhibition (HEK293; VRAC current, inhibitor; hypotonic swelling-activated): ~100%
